Published values gathered from unrelated publications.
Numbers after ± are the reported error.
Sequence of UniProt Q8TDC3 (whole entry, looked up): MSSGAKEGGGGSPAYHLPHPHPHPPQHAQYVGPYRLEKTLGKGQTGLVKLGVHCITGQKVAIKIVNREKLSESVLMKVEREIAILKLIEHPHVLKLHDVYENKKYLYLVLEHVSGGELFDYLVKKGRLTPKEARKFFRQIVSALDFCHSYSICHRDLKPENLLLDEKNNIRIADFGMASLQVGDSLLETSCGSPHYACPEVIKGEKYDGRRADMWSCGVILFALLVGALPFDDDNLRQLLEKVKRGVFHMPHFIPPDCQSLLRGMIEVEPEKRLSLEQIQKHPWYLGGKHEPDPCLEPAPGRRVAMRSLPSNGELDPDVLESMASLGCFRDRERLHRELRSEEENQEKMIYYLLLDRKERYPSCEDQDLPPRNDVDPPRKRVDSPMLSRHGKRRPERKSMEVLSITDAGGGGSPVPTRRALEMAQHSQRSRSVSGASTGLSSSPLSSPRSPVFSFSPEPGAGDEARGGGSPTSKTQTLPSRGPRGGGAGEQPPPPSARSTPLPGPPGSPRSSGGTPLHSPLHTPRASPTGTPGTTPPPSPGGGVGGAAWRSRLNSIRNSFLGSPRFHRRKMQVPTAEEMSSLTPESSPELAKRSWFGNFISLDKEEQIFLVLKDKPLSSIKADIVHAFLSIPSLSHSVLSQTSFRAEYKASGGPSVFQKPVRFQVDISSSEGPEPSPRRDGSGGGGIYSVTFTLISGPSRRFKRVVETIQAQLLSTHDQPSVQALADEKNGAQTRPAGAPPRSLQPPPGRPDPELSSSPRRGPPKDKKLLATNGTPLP
Sequence of UniProt Q16539 (whole entry, looked up): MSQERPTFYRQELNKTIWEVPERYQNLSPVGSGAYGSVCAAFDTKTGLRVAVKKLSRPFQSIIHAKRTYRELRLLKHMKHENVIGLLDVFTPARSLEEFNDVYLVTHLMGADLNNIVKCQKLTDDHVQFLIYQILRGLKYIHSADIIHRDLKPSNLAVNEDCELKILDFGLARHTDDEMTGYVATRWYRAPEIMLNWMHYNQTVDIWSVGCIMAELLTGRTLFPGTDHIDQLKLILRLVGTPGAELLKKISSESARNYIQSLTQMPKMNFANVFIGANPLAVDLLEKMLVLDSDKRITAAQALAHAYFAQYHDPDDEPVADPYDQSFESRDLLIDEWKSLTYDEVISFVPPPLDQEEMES

Structure (SMILES)	target or system	assay	test system	setting	how to read	quantity	value
CCCCCCCC(=O)NCCCC[C@H](NC(=O)CCCCCCC)C(=O)N[C@@H](CCCCNC(=O)CCCCCCC)C(=O)NCC(=O)NCC(=O)NCC(=O)N[C@@H](CS)C(=O)N[C@@H](CCCNC(=N)N)C(=O)N[C@@H](CCCCN)C(=O)N1CCC[C@H]1C(=O)N[C@@H](CS)C(=O)N[C@@H](CCCNC(=N)N)C(=O)N[C@@H](CCCCN)C(=O)N1CCC[C@H]1C(=O)N[C@@H](CS)C(=O)N[C@@H](CCCNC(=N)N)C(=O)N[C@@H](CCCCN)C(=O)N1CCC[C@H]1C(N)=O	IPEC-J2	cell growth or viability, MTT		24 h		IC50	117000 nM
CC(C)C12OC1C1OC13C1(C)CCC4=C(COC4=O)C1CC1OC13C2OC(=O)CCC(=O)OC1OC(CO)C(O)C(O)C1O (centres unmarked)	A253	cell growth or viability, XTT		47 h		IC50	710 nM
CCOc1cc(C)ccc1-n1c(CN2CCNCC2)nc2ccccc2c1=O	PANC-1	cell growth or viability, ATP luminescence		72 h		IC50	55 nM
CC1CCC2C(C)C(OC(=O)CCC(=O)OC3C(C)OC(n4cc(F)c(=O)[nH]c4=O)C3OC(=O)CCC(=O)OC3OC4OC5(C)CCC6C(C)CCC(C3C)C46OO5)OC3OC4(C)CCC1C32OO4 (centres unmarked)	OVCAR-3	cell growth or viability, CCK-8				IC50	880 nM
CCOc1c(Cl)cccc1-n1c(CN2CCNCC2)nc2ccccc2c1=O	PANC-1	cell growth or viability, ATP luminescence		72 h		IC50	2600 nM
Cc1cc(Oc2nc(N3CC[C@@H](c4ccncc4)C3)ncc2F)[nH]n1	SK-N-AS	cell proliferation				IC50	> 100000 nM
CCOc1ccccc1-n1c(CN2[C@@H]3CC[C@H]2CNC3)nc2ccccc2c1=O	PANC-1	cell growth or viability, ATP luminescence		72 h		IC50	10100 nM
COc1ccccc1-c1n[nH]c2nc(N[C@H]3CC[C@H](NS(=O)(=O)CC(C)C)CC3)ncc12		bead binding, competition bead pull-down, refers to: LMJF.27.0930	Leishmania donovani extract	10 µM	baseline: vehicle	relative abundance	1.2
CC[C@H](C)[C@H](NC(=O)[C@H](C)NC(=O)[C@@H](N)Cc1c[nH]cn1)C(=O)N[C@@H](Cc1ccc(O)cc1)C(=O)N1CCC[C@H]1C(=O)N[C@@H](CCCNC(=N)N)C(=O)N[C@@H](Cc1c[nH]cn1)C(=O)N[C@@H](CC(C)C)C(=O)N[C@@H](CCC(=O)O)C(=O)N[C@H](C(=O)N[C@@H](C)C(=O)N[C@H](C(=O)N[C@@H](CC(N)=O)C(=O)N[C@@H](CC(C)C)C(=O)N[C@@H](C)C(=O)N[C@@H](Cc1c[nH]c2ccccc12)C(=O)O)C(C)C)[C@@H](C)O	CLL patient PBMCs	cell death, PI staining flow cytometry		90 min		IC50	> 10700 nM
CC(=O)N[C@H](C(=O)N[C@@H](CCCNC(=N)N)C(=O)N[C@@H](CCCCN)C(=O)N[C@@H](CCCNC(=N)N)C(=O)N[C@H](C(=O)N[C@@H](CC(C)C)C(=O)N[C@@H](CCCNC(=N)N)C(=O)N[C@]1(C)CCCC=CCCC[C@@](C)(C(=O)N[C@@H](CCC(=O)O)C(=O)N[C@@H](CCCNC(=N)N)C(=O)N[C@@H](CCC(=O)O)C(=O)N[C@@H](CC(C)C)C(=O)N[C@H](C(=O)N[C@@H](CCC(=O)O)C(N)=O)C(C)C)NC(=O)[C@H](CC(C)C)NC(=O)[C@H](CC(C)C)NC1=O)[C@@H](C)O)C(C)C	H3255 (EGFR L858R)	cell viability, ATP luminescence		18 h		IC50	> 100000 nM
CCOc1ccccc1-n1c(CN2CCNCC2)nc2ccccc2c1=O	KP3			72 h		IC50	186 nM
CC(=O)N[C@H](C(=O)N[C@@H](CCCNC(=N)N)C(=O)N[C@@H](CCCCN)C(=O)N[C@@H](CCCNC(=N)N)C(=O)N[C@]1(C)CCCCCCC=CCCC[C@@](C)(C(=O)N[C@@H](CCCNC(=N)N)C(=O)N[C@@H](CCC(=O)O)C(=O)N[C@@H](CC(C)C)C(=O)N[C@H](C(=O)N[C@@H](CCC(=O)O)C(N)=O)C(C)C)NC(=O)[C@H](CCC(N)=O)NC(=O)[C@H](C)NC(=O)[C@H](C)NC(=O)[C@H](CCCNC(=N)N)NC(=O)[C@H](CCCNC(=N)N)NC(=O)[C@H](C)NC1=O)C(C)C	H3255 (EGFR L858R)	cell viability		18 h, serum-free		IC50	5600 nM
C[C@H]1[C@H](OC(=O)CCC(=O)OCCC2CCN(CC(=O)Nc3ccc([N+](=O)[O-])c(C(F)(F)F)c3)CC2)O[C@@H]2O[C@@]3(C)CC[C@H]4[C@H](C)CC[C@@H]1[C@@]24OO3	Hep3B	cell growth or viability, CCK-8				IC50	1030 nM
O=C(c1cc(Cc2n[nH]c(=O)c3ccccc23)ccc1F)N1CC(CNC2CC2)C1	OVCAR-3					IC50	5.8 nM
O=C(O)c1ccc([S][Au][PH](c2ccccc2)(c2ccccc2)[c-]2cccc2)cc1.[Fe+2].c1cc[cH-]c1	CAKI-1	cell growth or viability, XTT		24 h		IC50	4170 nM
CC(=O)N[C@H](C(=O)N[C@@H](CCCNC(=N)N)C(=O)N[C@@H](CCCCN)C(=O)N[C@@H](CCCNC(=N)N)C(=O)N[C@H](C(=O)N[C@@H](CC(C)C)C(=O)N[C@@H](CCCNC(=N)N)C(=O)N[C@]1(C)CCCC=CCCC[C@@](C)(C(=O)N[C@@H](CCC(=O)O)C(=O)N[C@@H](CCCNC(=N)N)C(=O)N[C@@H](CCC(=O)O)C(=O)N[C@@H](CC(C)C)C(=O)N[C@H](C(=O)N[C@@H](CCC(=O)O)C(N)=O)C(C)C)NC(=O)[C@H](CC(C)C)NC(=O)[C@H](CC(C)C)NC1=O)[C@@H](C)O)C(C)C	SK-N-MC	cell viability		18 h, serum-free		IC50	> 10000 nM
Cc1sc2c(c1C)C(c1ccc(-c3cccc(NC(=O)c4cnn5cccnc45)c3)cc1)=N[C@@H](CC(N)=O)c1nnc(C)n1-2	MV4-11	cell growth or viability, ATP luminescence		72 h		IC50	5.9 nM
CCOc1ccc(F)cc1-n1c(CN2CCNCC2)nc2ccccc2c1=O	PANC-1	cell growth or viability, ATP luminescence		72 h		IC50	430 nM

Structure (SMILES)	target or system	assay	test system	setting	how to read	quantity	value
O=C1NC(=O)c2c1c1cc(F)c[n+]3c1c1c2c2cc(O)ccc2[n]1[Ru-4]312([N]=C=S)[S+]3CC[S+]1CC[S+]2CC3 (centres unmarked)	Serine/threonine-protein kinase BRSK1 (BRSK1, Homo sapiens, UniProt Q8TDC3)	enzyme activity		100 nM, human enzyme, added: 10 µM ATP	baseline: untreated	remaining activity	51%
CN(CCO)CCO.O=C(O)C(Cl)Cl	Eleusine indica			15 mg/mL, 21 days, pre-emergence, greenhouse		herbicidal inhibition	0%
COc1ccccc1-c1n[nH]c2nc(NC3CCN(C(=O)Cc4ccc(F)cc4F)CC3)ncc12		bead binding, competition bead pull-down, refers to: LINJ.28.2080	Leishmania donovani extract	10 µM	baseline: vehicle	relative abundance	1.07
C[C@@H]1COCCN1c1nc(NCc2cccnc2C(F)(F)F)c2cccnc2n1	cardiomyocytes	cellular ATP level		in vitro toxicology		IC50	> 14000 nM
Cc1cc(C(=O)Nc2nc3cccc(C)c3n2[C@H]2CCCCN(C(=O)/C=C/CN(C)C)C2)ccn1	Trypanosoma brucei	propidium iodide flow cytometry	bloodstream form	concentration not given, 3 h		cells in G2 phase	29.8%
CC(C)(C)C(=O)OCOP(=O)(OCOC(=O)C(C)(C)C)C1CCCN(O)C1=O (centres unmarked)	TK-10					log GI50	-6.27 log M
Cc1cc(Nc2nc(C[C@@]3(C(=O)O)CCN(Cc4cccc(Cl)c4F)[C@H](C)C3)cc(C)c2F)[nH]n1	HCC70	cell growth or viability, ATP luminescence		5 days		IC50	157 nM
O=C1NC2(CC2)COc2ncc(F)cc2[C@H]2COCCN2c2ccn3ncc1c3n2			Sprague-Dawley rat, female, serum	oral, 20 mg/kg/day, end of treatment, 4-week subacute toxicity		serum LDH activity	768 ± 410 U/L
CC(=O)N[C@H](C(=O)N[C@@H](CCCNC(=N)N)C(=O)N[C@@H](CCCCN)C(=O)N[C@@H](CCCNC(=N)N)C(=O)N[C@]1(C)CCCCCCC=CCCC[C@@](C)(C(=O)N[C@@H](CCCNC(=N)N)C(=O)N[C@@H](CCC(=O)O)C(=O)N[C@@H](CC(C)C)C(=O)N[C@H](C(=O)N[C@@H](CCC(=O)O)C(N)=O)C(C)C)NC(=O)[C@H](CCC(N)=O)NC(=O)[C@H](CC(C)C)NC(=O)[C@H](CC(C)C)NC(=O)[C@H](CCCNC(=N)N)NC(=O)[C@H](CCCNC(=N)N)NC(=O)[C@H](CC(C)C)NC1=O)C(C)C	SK-N-MC	cell viability		18 h, serum-free		IC50	~10000 nM
O=c1c2ccccc2nc(CN2CCNCC2)n1-c1ccccc1	PANC-1	cell growth or viability, ATP luminescence		72 h		IC50	> 10000 nM
CC1CCC2C(C)C(OC(=O)CCC(=O)N3CCN(CC(=O)Nc4ccc([N+](=O)[O-])c(C(F)(F)F)c4)CC3)OC3OC4(C)CCC1C32OO4 (centres unmarked)	PC-3 (p53 null)	cell growth, CCK-8		48 h		IC50	> 50000 nM
O=C1C=CC(=C(c2ccc(O)cc2)c2c(C#Cc3ccc(O)cc3)cccc2-c2ccc(O)cc2)C=C1	MGC-803	cell growth or viability, MTT		48 h		IC50	14800 nM
CC(=O)N[C@H](C(=O)N[C@@H](CCCNC(=N)N)C(=O)N[C@@H](CCCCN)C(=O)N[C@@H](CCCNC(=N)N)C(=O)N[C@@]1(C)CCCC=CCCC[C@@](C)(C(=O)N[C@@H](CC(C)C)C(=O)N[C@@H](CCC(N)=O)C(=O)N[C@@H](CCC(=O)O)C(=O)N[C@@H](CCCNC(=N)N)C(=O)N[C@@H](CCC(=O)O)C(=O)N[C@@H](CC(C)C)C(=O)N[C@H](C(=O)N[C@@H](CCC(=O)O)C(N)=O)C(C)C)NC(=O)[C@H](CCCNC(=N)N)NC(=O)[C@H](CCCNC(=N)N)NC(=O)[C@H](CC(C)C)NC1=O)C(C)C	H3255 (EGFR L858R)	cell viability		18 h, serum-free		IC50	> 100000 nM
CCC1(c2ccc(NC(=O)CCC(=O)OC3OC4OC5(C)CCC6C(C)CCC(C3C)C46OO5)cc2)CCC(=O)NC1=O (mixture of isomers)	OVCAR-3	cell growth or viability, CCK-8				IC50	1240 nM
CCCCCCCC(=O)NCCCC[C@H](NC(=O)CCCCCCC)C(=O)N[C@@H](CCCCNC(=O)CCCCCCC)C(=O)NCC(=O)NCC(=O)NCC(=O)N[C@@H](CS)C(=O)N[C@@H](CCCNC(=N)N)C(=O)N[C@@H](CCCCN)C(=O)N1CCC[C@H]1C(=O)N[C@@H](CS)C(=O)N[C@@H](CCCNC(=N)N)C(=O)N[C@@H](CCCCN)C(=O)N1CCC[C@H]1C(=O)N[C@@H](CS)C(=O)N[C@@H](CCCNC(=N)N)C(=O)N[C@@H](CCCCN)C(=O)N1CCC[C@H]1C(=O)N[C@@H](CS)C(=O)N[C@@H](CCCNC(=N)N)C(=O)N[C@@H](CCCCN)C(=O)N1CCC[C@H]1C(N)=O	IPEC-J2	cell growth or viability, MTT		24 h		IC50	163000 nM
CN(C)C(=O)[C@@H](NC(=O)c1cc(-c2ccnn2C)ccc1-c1ccc(C(F)(F)F)cc1)c1cccc(C(F)(F)F)c1	NKL effector, Ba/F3-MICB target	NKG2D-mediated cell killing, inhibitor				IC50	600 nM
CN(C)[C@H]1C[C@@]23CC[C@@]4(O2)C(=CC[C@]2(C)[C@@H](c5ccc6ccncc6c5)CC[C@H]24)C=C3[C@@H](O)[C@@H]1O	Mitogen-activated protein kinase 14 (MAPK14, Homo sapiens, UniProt Q16539)	ATP probe labelling, inhibitor, KiNativ profiling		1 µM		inhibition	8.7%
